Assay results from different studies.
Compare with care: the assays were run in different laboratories. ± gives the spread as reported. Values after ≈ are worked out from the molar mass of the structure shown. Ends that are not written are not given here. * marks the point of attachment.

| Substance | test | test system | setting | how to read | endpoint | value |
| --- | --- | --- | --- | --- | --- | --- |
| CCN(CC)C(=S)SSC(=S)N(CC)CC | 7-AAD flow cytometry | human whole blood | 30 µM, 4 h, 37 °C, with: LPS plus nigericin | – | dead cells | 7% |
| Nc1nnc(-c2cccc(Cl)c2Cl)c(N)n1 | spontaneous generalized tonic-clonic seizures | Scn1a+/- mice | oral in chow, 125 mg/kg chow, 60 h, subchronic from P18, video P22-P24 | – | seizure frequency | 6.9 ± 1.6 seizures/day |
| CC(C)(O)c1ccccc1-c1ccc2[nH]c(/C=C/c3ccc(C(F)(F)F)cc3)nc2c1 | – | human, UVB-sensitized skin | max heat pain tolerance | – | plasma concentration | > 50 ng/mL |
| O=C(/C=C/c1cc(O)ccc1O)OCCc1ccccc1 | DPPH | ethanol | 20 µM, 30 min, room temperature | – | radical scavenging | 67% |
| Palmitoyl-SMTSCAPS (N-palmitoyl; Palmitoyl = CCCCCCCCCCCCCCCC(=O)*) | – | AsPC-1, male SCID mice, subcutaneous AsPC-1 xenograft | intratumoral, 500 µg/mouse/day, 3 weeks | – | tumour weight | 334 ± 47.5 mg |
| CN(C(=O)c1c(Oc2ccc(F)cc2)nc2ncccn12)c1ccc(Cl)cc1 | – | mouse C57BL/6J diet-induced obese | oral, 9 mg/kg once daily, week 4, AUC 0 to 120 min, with: sitagliptin 1 mg/kg | relative to: vehicle | OGTT glucose AUC reduction | 16.6% |
| c1ccc2cc3c(ccc4ccccc43)cc2c1 | adrenal apoplexy prevention | rat | oral, with: 7,12-DMBA 5 mg i.v. | – | non-protective dose | 0.5 mg |
| COCCc1ccc(OCC(O)CNC(C)C)cc1 (centres unmarked) | western blot | rats, adrenaline arrhythmia, myocardium | intragastric, 2.57 g/kg daily, 14 days, unit not given | relative to: GAPDH | Cx43 protein level | 0.49 ± 0.05 |
| NC(=O)[C@H](CCC(=O)O)NC(=O)[C@H](CCC(=O)O)NC(=O)[C@H](Cc1cc(-c2ccc(-c3cccc(Cl)c3)cc2)no1)CP(=O)(O)c1ccc(Br)cc1 | – | plaque vascular smooth muscle cells, high-fat-fed apoE-knockout mice, atherosclerotic plaque | dose not given | – | apoptotic cells | 0.7 ± 0.3% |
| neuropeptide Y | mean arterial pressure | rat Sprague Dawley urethane-anaesthetized | intravenous, 5 nmol | – | time to peak response | 2.7 ± 0.2 min |
| COc1ccc(-c2nc3ccccc3s2)cc1OCc1nnc(-c2c(C)cccc2C)o1 | seizure protection | albino mouse, scPTZ-induced seizure | ip, 0.5 h | – | minimal effective dose | 100 mg/kg |
| Cc1c2ccccc2cc2ccc3ccccc3c12 | adrenal apoplexy prevention | rat | oral, with: 7,12-DMBA 5 mg i.v. | – | non-protective dose | 0.5 mg |
| CNS(=O)(=O)Nc1nccc(Cc2c(C)c3ccc(Oc4ncccn4)cc3oc2=O)c1F | immunohistochemistry, measured: phospho-FAK Tyr397 | human tumour patients, tumour biopsy | dose not given, with: defactinib | relative to: after single dose of compound | FAK Tyr397 phosphorylation | increased |
| CC1(C)C(/C=C/C=C/C=C/C=C2\N(CCCCS(=O)(=O)O)c3ccc4ccccc4c3C2(C)C)=[N+](CCCCS(=O)(=O)[O-])c2ccc3ccccc3c21 | ex vivo NIR imaging | MDA-MB-231-iRFP, mouse xenograft | intravenous, 0.5 mg/kg, 24 h | – | concordance with iRFP signal | 12% |
| Cn1cc(Nc2nccc(-c3ccc4c(c3)CN(C3COC3)CC[C@H]4NC(=O)c3cn(C(C)(C)C)nn3)n2)cn1 | CD69 expression | naive B cells, healthy human volunteers, whole blood ex vivo | oral, 50 mg twice daily, 48 h, with: anti-IgD | relative to: pre-dose | inhibition | 66% |
| CS/C(S)=N/CCCC[S+](C)[O-] (racemic) | RT-PCR, measured: Marcks | rat, liver | oral gavage, 200 mg/kg, 96 h, dosed for four days | relative to: vehicle | mRNA fold change | 0.691 |
| O=C(/C=C/c1ccc(O)c(O)c1)OCCc1ccccc1 | DPPH | ethanol | 20 µM, 30 min, room temperature | – | radical scavenging | 57% |
| difelikefalin | – | Japanese haemodialysis patients with pruritus | intravenous, 0.25 µg/kg thrice weekly, week 8 | relative to: baseline, direction not given | NRS itch score change | -2.97 |
| O=C1NC(=O)C(c2ccccc2)(c2ccccc2)N1 | seizure protection | albino mouse, scPTZ-induced seizure | ip, 4.0 h | – | minimal effective dose | 30 mg/kg |
| CC(/C=C/C(=O)NO)=C\[C@@H](C)C(=O)c1ccc(N(C)C)cc1 | inhibitor, ELISA | wild-type mice, serum | dose not given, 2 h after LPS, daily dosing from day -2, LPS on day 0, with: LPS | relative to: LPS-treated vehicle | serum IL-1β reduction | 79% |
| CC(C)(C(=O)NCC(F)(F)C(F)(F)F)C(=O)N[C@@H]1C(=O)Nc2ccccc2-c2ccccc21 | – | patients with refractory solid tumours | dose not given, with: capecitabine | – | partial response rate | 10% |
| Cc1c2ccccc2c(C)c2c1ccc1ccccc12 | inducer | rat, liver | intravenous, 5 mg at 0 h and 5 mg at 24 h, 48 h | relative to: untreated control | menadione reductase activity | 316% |
| Cc1cc(C)c(/C=C2\C(=O)Nc3ccccc32)[nH]1 | – | human, pediatric refractory CNS tumours | dose not given, stratum II | relative to: patients | stable disease | 17% |
| C[C@H]1C[C@H]2CSC(N)=N[C@@]2(c2nc(NC(=O)c3ccc(OC(F)F)cn3)cs2)CO1 | measured: CSF Aβx-38 | healthy adults | 125 mg once daily, 14 days, day 15 | relative to: placebo-adjusted baseline | change from baseline | -79.5% |

| Substance | test | test system | setting | how to read | endpoint | value |
| --- | --- | --- | --- | --- | --- | --- |
| COc1ccc(-c2nc3ccccc3s2)cc1OCc1nnc(-c2ccc(Cl)cc2)o1 | hind limb tonic extension | albino mouse, MES-induced seizure | ip, 0.5 h | – | minimal effective dose | 100 mg/kg |
| O=C(NC[C@H]1CN(c2ccc(N3CCOCC3=O)cc2)C(=O)O1)c1ccc(Cl)s1 | – | human, moderate renal impairment | 10 mg, with: steady-state erythromycin | relative to: normal renal function, compound alone | prothrombin time Emax increase | ~22% |
| Nc1cc2c3ccccc3ccc2c2ccccc12 | inducer | female rat, liver | oral, 10 mg, 24 h, sesame oil vehicle | – | menadione reductase activity | 100 enzyme units |
| Cc1cnc(-c2ccnc(C(C)(C)O)n2)cc1-n1c(C)cc(OCc2ncc(F)cc2F)c(Cl)c1=O | HSP27 phosphorylation | human, ex vivo whole blood, plasma level | with: lipopolysaccharide | – | IC80 | 0.0367 µg/mL (≈ 0.0714 µM) |
| insulin aspart | euglycaemic clamp | type 1 diabetes patients | subcutaneous, 0.2 U/kg single, 2 h to 12 h, antibody quartile 3, 6.65-15.68 %B/T | – | AUC glucose infusion rate | 815 mg/kg |
| SIYNFEKL | flow cytometry, measured: CD44hi CD8+ T cells | peptide, OT-I CD8+ T cells, mouse | dose not given, primed 5 days, restimulated 100 ng/mL OVA257, with: no TGF-β1 | – | IL-2 only cells | 19.5% |
| O=C1c2c(O)cc(O)cc2O[C@H](c2cc(O)c(O)c(O)c2)[C@H]1O | – | rat, intermittent ethanol access | oral in drinking fluid, 0.05 mg/mL, end of week 8, from week 7 | – | ethanol intake | 1.2 ± 0.2 g/kg/day |
| COc1ccc(-c2nc3ccccc3s2)cc1OCc1nnc(-c2ccc([N+](=O)[O-])cc2)o1 | hind limb tonic extension | albino mouse, MES-induced seizure | ip, 4.0 h | – | minimal effective dose | 30 mg/kg |
| CNCC(CS)CNC | – | nude mouse, B16 melanoma xenograft | topical, 1850 mM, four applications, 14 days, with: 9.2 Gy irradiation | relative to: topical vehicle | irradiated tumour growth | no effect |
| COc1cc(CCOC(=O)/C=C/c2ccc(O)c(O)c2)ccc1O | DPPH | ethanol | 20 µM, 30 min, room temperature | – | radical scavenging | 60% |
| NC/C(=C\F)COc1cccc(Cn2c(=S)[nH]c(=O)c3[nH]cnc32)c1 | – | mouse, UUO model, left kidney | oral, 60 mg/kg twice daily, 14 days | – | renal fibrosis | inhibited |
| COc1ccc(-c2nc3ccccc3s2)cc1OCc1nnc(-c2ccccc2)o1 | hind limb tonic extension | albino mouse, MES-induced seizure | ip, 4.0 h | – | minimal effective dose | 100 mg/kg |
| CN(Cc1cc(Br)cc(Br)c1N)C1CCCCC1 | – | ICR SCID mice, TRAMP cells iv, liver | 30 mg/kg, 8 weeks | relative to: vehicle | mice with metastasis | 27% |
| DWFKAFYDKVAEKFKEAF (N-acetyl, C-amide) | Oil Red O en face | peptide, female apoE-null mice, aorta | retro-orbital, 100 µg three times weekly, 6 weeks | relative to: control group | aortic lesion area | decreased |
| CC(C)(O)CNc1nc(Nc2ccnc(C(F)(F)F)c2)nc(-c2cccc(C(F)(F)F)n2)n1 | measured: 2-hydroxyglutarate | human newly diagnosed mIDH AML | oral, 100 mg once daily, induction cycle 1 day 8, with: induction chemotherapy | – | plasma 2-HG trough reduction | 82.8% |
| COc1ccc(-c2nc3ccccc3s2)cc1OCc1nnc(-c2ccc(O)cc2)o1 | hind limb tonic extension | albino mouse, MES-induced seizure | ip, 0.5 h | – | minimal effective dose | 30 mg/kg |
| COc1ccc2nc([S@@+]([O-])Cc3ncc(C)c(OC)c3C)[nH]c2c1 | – | healthy human | oral, single dose, 40 mg, 12 to 24 h, crossover vs dexlansoprazole MR | – | mean intragastric pH | 3.5 |
| hen egg-white lysozyme | measured: IL-2 | T-cell hybridoma 1C5.1, C3H mice, lymph node cells | dose not given, after immunization | – | time to presentation | 6 to 12 days |
| Cc1ccc(C(=O)N(C(=O)c2ccc(C)cc2)C(=S)N2N=C(c3ccc(Cl)cc3)CC2c2ccc(F)cc2)cc1 (centres unmarked) | DPPH scavenging, absorbance | – | – | – | IC50 | 106 µM |
| COc1ccc(-c2nc3ccccc3s2)cc1OCc1nnc(Cc2ccccc2)o1 | seizure protection | albino mouse, scPTZ-induced seizure | ip, 0.5 h | – | minimal effective dose | 100 mg/kg |
| O=C1O[C@H]([C@@H](O)CO)C(O)=C1O | ABTS scavenging, absorbance | – | – | – | EC50 | 2110 µM |
| COc1ccc(-c2nnc(COc3cc(-c4nc5ccccc5s4)ccc3OC)o2)cc1 | hind limb tonic extension | albino mouse, MES-induced seizure | ip, 0.5 h | – | minimal effective dose | 300 mg/kg |
| O=C1O[C@H]([C@@H](O)CO)C(O)=C1O | DPPH radical scavenging | – | 30 min | – | IC50 | 124 ± 6.22 µM |
